Measured values gathered from unrelated publications.
Each line is one published result; not all experiments were run side by side. Numbers after ± are the reported error.
Medium: plasma

| SMILES | test | system | setting | measurement | value |
| --- | --- | --- | --- | --- | --- |
| Cc1[nH]c(=O)c(CNC(=O)c2cc(Cl)c3c(c2C)O[C@@](C)([C@H]2CC[C@H](N(C)C)CC2)O3)c(C)c1O |  | human male | oral, 200 mg, single dose, metabolite of valemetostat, together with: [14C]-valemetostat | Tmax | 4 h |
| CCCCCCCOc1ccc(CC[C@](N)(CO)COP(=O)(O)O)cc1C(F)(F)F |  | healthy male humans | 0.5 mg amiselimod, day 21, median | Tmax | 8 h |
| CN1CCC[C@]1(C)/C=C/S(=O)(=O)NC(=O)Nc1c2c(cc3c1CC(O)C3)CCC2 (some centres unmarked) |  | human | oral, 12.5 mg twice daily of parent drug, day 14, metabolite of dosed drug | Tmax at first steady-state dose | 3 h |
| COc1cc2c(cc1OC)[C@H]1C[C@@H](O)[C@H](CC(C)C)CN1CC2 | item: non-deuterated analyte | healthy human male | oral, 25 mg, median, [14C]-tetrabenazine dosed | Tmax | 1.5 h |
| O=C(O)[C@H]1O[C@@H](N(Cc2ccc(C(F)(F)F)nc2)c2ccc(Cc3c[nH]c4ncc(Cl)cc34)cn2)[C@H](O)[C@@H](O)[C@@H]1O |  | human, male | oral, 400 mg of [14C]-pexidartinib single dose, as metabolite, median | Tmax | 3 h |
| CN(C(=O)C(C)(C)c1cc(C(F)(F)F)cc(C(F)(F)F)c1)c1cnc(N2C[C@H]3COC(O)CN3C[C@H]2CO)cc1-c1ccc(F)cc1CO (some centres unmarked) |  | human | oral, 120 mg, median | Tmax | 2.01 h |
| CC[C@H](C)[C@@H]1NC(=O)[C@H](Cc2ccc(O)cc2)NC(=O)CCCSC[C@@H](C(=O)N(CC(=O)N[C@@H](CC(C)C)C(=O)NCC(N)=O)Cc2ccc(F)cc2)NC(=O)[C@H](CC(N)=O)NC(=O)[C@H](CCC(N)=O)NC1=O |  | healthy human | intranasal, 50 µg every 3 h, after last dose | tmax median | 0.25 h |
| CN1CCC[C@]1(C)/C=C/S(=O)(=O)NC(=O)Nc1c2c(cc3c1CCC3O)CCC2 (some centres unmarked) |  | human | oral, 100 mg twice daily of parent drug, day 14, metabolite of dosed drug | Tmax at second steady-state dose | 3 h |
| COc1cc2c(cc1O)CCN1C[C@@H](CC(C)C)[C@H](O)C[C@H]21 | item: non-deuterated analyte | healthy human male | oral, 25 mg, median, [14C]-tetrabenazine dosed | Tmax | 2.5 h |
| CN1CCC[C@]1(C)/C=C/S(=O)(=O)NC(=O)Nc1c2c(cc3c1CCC3)CC=C2 |  | human | oral, 50 mg twice daily of parent drug, day 14, metabolite of dosed drug | Tmax at first steady-state dose | 3 h |
| [2H]C([2H])([2H])NC(=O)c1ccc(N2C(=S)N(c3ccc(C#N)c(C(F)(F)F)c3)C(=O)C2(C)C)cc1F |  | human male | oral, 160 mg, single dose after meal | Tmax | 2.04 ± 1.27 h |

Some of these lines once more:
| SMILES | test | system | setting | measurement | value |
| --- | --- | --- | --- | --- | --- |
| CN(C(=O)C(C)(C)c1cc(C(F)(F)F)cc(C(F)(F)F)c1)c1cnc(N2C[C@H]3COC(O)CN3C[C@H]2CO)cc1-c1ccc(F)cc1CO (some centres unmarked) |  | human | oral, 120 mg, median | Tmax | 2.01 h |
